Published values gathered from unrelated publications.
Compare with care: the assays were run in different laboratories. “And” joins repeats or separate records; there may be more than shown. ± gives the spread as reported.
B1: interferon gamma; sequence looked up; chain QDPYVKEAENLKKYFNAGHSDVADNGTLFLGILKNWKEESDRKIMQSQIVSFYFKLFKNFKDDQSIQKSVETIKEDMNVKFFNSNKKKRDDFEKLTNYSVTDLNVQRKAIHELIQVMAELSPAAKTGKRKRSQMLFRG
B2: recombinant human GDNF; sequence looked up; chain SPDKQMAVLPRRERNRQAAAANPENSRGKGRRGQRGKNRGCVLTAIHLNVTDLGLGYETKEELIFRYCSGSCDAAETTYDKILKNLSRNRRLVSDKVGQACCRPIAFDDDLSFLDDNLVYHILRKHSAKRCGCI
B3: coatomer subunit gamma-1, human; sequence looked up; chain MLKKFDKKDEESGGGSNPFQHLEKSAVLQEARVFNETPINPRKCAHILTKILYLINQGEHLGTTEATEAFFAMTKLFQSNDPTLRRMCYLTIKEMSCIAEDVIIVTSSLTKDMTGKEDNYRGPAVRALCQITDSTMLQAIERYMKQAIVDKVPSVSSSALVSSLHLLKCSFDVVKRWVNEAQEAASSDNIMVQYHALGLLYHVRKNDRLAVNKMISKVTRHGLKSPFAYCMMIRVASKQLEEEDGSRDSPLFDFIESCLRNKHEMVVYEAASAIVNLPGCSAKELAPAVSVLQLFCSSPKAALRYAAVRTLNKVAMKHPSAVTACNLDLENLVTDSNRSIATLAITTLLKTGSESSIDRLMKQISSFMSEISDEFKVVVVQAISALCQKYPRKHAVLMNFLFTMLREEGGFEYKRAIVDCIISIIEENSESKETGLSHLCEFIEDCEFTVLATRILHLLGQEGPKTTNPSKYIRFIYNRVVLEHEEVRAGAVSALAKFGAQNEEMLPSILVLLKRCVMDDDNEVRDRATFYLNVLEQKQKALNAGYILNGLTVSIPGLERALQQYTLEPSEKPFDLKSVPLATAPMAEQRTESTPITAVKQPEKVAATRQEIFQEQLAAVPEFRGLGPLFKSSPEPVALTESETEYVIRCTKHTFTNHMVFQFDCTNTLNDQTLENVTVQMEPTEAYEVLCYVPARSLPYNQPGTCYTLVALPKEDPTAVACTFSCMMKFTVKDCDPTTGETDDEGYEDEYVLEDLEVTVADHIQKVMKLNFEAAWDEVGDEFEKEETFTLSTIKTLEEAVGNIVKFLGMHPCERSDKVPDNKNTHTLLLAGVFRGGHDILVRSRLLLLDTVTMQVTARSLEELPVDIILASVG

Molecule	target or system	assay	system	conditions	scale	quantity	result
B1 (interferon gamma)		proteinuria inducer	FVB mice	dose not given, 0 to 72 h		urine albumin/creatinine ratio AUC	481 and 625 and 472 and 292 and 1910 and 348 and 533
Pam2CSK4			APP/PS1 mouse, cortex	local injection, dose not given, unit not given	baseline: injected over adjacent side	OC-positive amyloid level	0.776 and 1.48 and 0.96
semaglutide			Wistar rat, male, diet-induced obese, blood, fasted	subcutaneous, dose not given, after 10 weeks treatment		serum cholesterol	89 ± 6 mg/dL
B2 (recombinant human GDNF)		CNN cell counting, item: tyrosine hydroxylase	rat, 6-OHDA lesion model, substantia nigra pars compacta, intact side	3 µg/24 h		TH-immunoreactive cell count	1340 ± 152
heparin sodium			human	intravenous infusion, 8 IU/kg/h, day 1 to 6	baseline: baseline	Emax of ACT ratio	1.06
maraviroc		ELISA, item: sRAGE	mouse, HIV-infected, serum	intraperitoneal, 120 mg/kg twice daily, week 3 post infection	baseline: HIV-infected untreated	fold change	3.13 fold
KCNTATCATQRLANFLVHSSNNFGPILPPTNVGSNTY (Pramlintide; sequence looked up)		ELISA	peptide, Tg2576 mouse, CSF	intraperitoneal, dose not given, 10 weeks daily		Aβ1-42 level	46.5 ± 2.51 pg/mL
cotadutide		metabolomics, item: hepatic serine	ob/ob mice on AMLN diet, NASH model, liver	dose not given		metabolite level	1.04 ± 0.05 scaled intensity
liraglutide			Wistar rat, female, diet-induced obese	dose not given, baseline before treatment		body weight	566 ± 46 g
human hnRNP K	CYB5R4 knockout human cells	PP4 interaction, 3xFLAG-PP4C IP-MS		concentration not given	baseline: CYB5R4 KO over parental	log2 fold change	0.43
GWTLNSAGYLLGPHAVGNHRSFSDKNGLTS-NH2 (C-amide)		RT-qPCR, item: Tjp1	peptide, mouse, DSS-induced colitis, colon	ip, 3 µM, 3% DSS, unit not given	baseline: Gapdh	mRNA level	6.04 and 5.66 and 4.38 and 5.22
REGYEMVFDGKPQHTNVCF		Luminex, item: IFN-γ	peptide, NOD-DR3 mice, peptide-immunized, splenocytes	dose not given, 48 h		interferon gamma secretion	> 1000 pg/mL
difelikefalin			Japanese haemodialysis patients with pruritus	intravenous, 1.0 µg/kg, 8 weeks		PGIC very much improved	31.7%
B3	CYB5R4 knockout human cells	PP4 interaction, 3xFLAG-PP4C IP-MS		concentration not given	baseline: CYB5R4 KO over parental	log2 fold change	-1.89
ESGRRVLVYSCRHGYELQG		Luminex, item: IFN-γ	peptide, NOD-DR3 mice, peptide-immunized, splenocytes	dose not given, 48 h		interferon gamma secretion	> 1000 pg/mL
somatropin			Children, Prader-Willi syndrome	dose not given, 6 months	baseline: baseline	liver stiffness	no effect

Repeated from above:
Molecule	target or system	assay	system	conditions	scale	quantity	result
GWTLNSAGYLLGPHAVGNHRSFSDKNGLTS-NH2 (C-amide)		RT-qPCR, item: Tjp1	peptide, mouse, DSS-induced colitis, colon	ip, 3 µM, 3% DSS, unit not given	baseline: Gapdh	mRNA level	6.04 and 5.66 and 4.38 and 5.22
REGYEMVFDGKPQHTNVCF		Luminex, item: IFN-γ	peptide, NOD-DR3 mice, peptide-immunized, splenocytes	dose not given, 48 h		interferon gamma secretion	> 1000 pg/mL
